Measurements collected from several papers.
Compare with care: the assays were run in different laboratories. ± gives the spread as reported.
Platelet-activating factor acetylhydrolase 2, cytoplasmic: Platelet-activating factor acetylhydrolase 2, cytoplasmic (Mus musculus, UniProt Q8VDG7)
Chain of UniProt Q8VDG7 (whole entry, looked up): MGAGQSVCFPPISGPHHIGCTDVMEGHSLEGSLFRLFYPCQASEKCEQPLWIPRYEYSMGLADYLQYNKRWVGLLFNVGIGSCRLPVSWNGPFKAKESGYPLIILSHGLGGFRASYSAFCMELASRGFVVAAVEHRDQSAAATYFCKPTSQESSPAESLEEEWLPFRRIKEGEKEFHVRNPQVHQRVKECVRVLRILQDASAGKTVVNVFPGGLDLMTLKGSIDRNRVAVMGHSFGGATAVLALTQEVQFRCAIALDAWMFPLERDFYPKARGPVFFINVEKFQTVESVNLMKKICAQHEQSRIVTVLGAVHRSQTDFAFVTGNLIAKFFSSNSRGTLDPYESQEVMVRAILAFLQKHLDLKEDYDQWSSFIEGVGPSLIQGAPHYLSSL
PLAT: Tissue-type plasminogen activator (PLAT, Homo sapiens, UniProt P00750)
Chain of UniProt P00750 (whole entry, looked up): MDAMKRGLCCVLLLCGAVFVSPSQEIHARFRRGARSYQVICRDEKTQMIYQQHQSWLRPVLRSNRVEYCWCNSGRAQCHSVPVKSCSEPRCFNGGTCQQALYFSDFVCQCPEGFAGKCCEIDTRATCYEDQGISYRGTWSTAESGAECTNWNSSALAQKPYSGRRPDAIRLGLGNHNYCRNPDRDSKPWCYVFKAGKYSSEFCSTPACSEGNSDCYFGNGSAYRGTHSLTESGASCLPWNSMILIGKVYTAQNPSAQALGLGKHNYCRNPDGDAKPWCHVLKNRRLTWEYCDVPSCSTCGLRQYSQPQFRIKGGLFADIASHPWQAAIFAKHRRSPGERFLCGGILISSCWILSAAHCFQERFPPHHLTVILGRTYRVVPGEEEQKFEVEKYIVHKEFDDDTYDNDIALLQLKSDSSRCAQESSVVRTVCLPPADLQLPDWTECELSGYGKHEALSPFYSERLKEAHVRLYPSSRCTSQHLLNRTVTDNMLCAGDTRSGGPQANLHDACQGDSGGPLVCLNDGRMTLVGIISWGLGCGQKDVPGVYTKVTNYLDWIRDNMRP
Breakpoint cluster region protein GAP domain: Breakpoint cluster region protein, GAP domain (Homo sapiens, UniProt P11274)
Chain of UniProt P11274 (whole entry, looked up): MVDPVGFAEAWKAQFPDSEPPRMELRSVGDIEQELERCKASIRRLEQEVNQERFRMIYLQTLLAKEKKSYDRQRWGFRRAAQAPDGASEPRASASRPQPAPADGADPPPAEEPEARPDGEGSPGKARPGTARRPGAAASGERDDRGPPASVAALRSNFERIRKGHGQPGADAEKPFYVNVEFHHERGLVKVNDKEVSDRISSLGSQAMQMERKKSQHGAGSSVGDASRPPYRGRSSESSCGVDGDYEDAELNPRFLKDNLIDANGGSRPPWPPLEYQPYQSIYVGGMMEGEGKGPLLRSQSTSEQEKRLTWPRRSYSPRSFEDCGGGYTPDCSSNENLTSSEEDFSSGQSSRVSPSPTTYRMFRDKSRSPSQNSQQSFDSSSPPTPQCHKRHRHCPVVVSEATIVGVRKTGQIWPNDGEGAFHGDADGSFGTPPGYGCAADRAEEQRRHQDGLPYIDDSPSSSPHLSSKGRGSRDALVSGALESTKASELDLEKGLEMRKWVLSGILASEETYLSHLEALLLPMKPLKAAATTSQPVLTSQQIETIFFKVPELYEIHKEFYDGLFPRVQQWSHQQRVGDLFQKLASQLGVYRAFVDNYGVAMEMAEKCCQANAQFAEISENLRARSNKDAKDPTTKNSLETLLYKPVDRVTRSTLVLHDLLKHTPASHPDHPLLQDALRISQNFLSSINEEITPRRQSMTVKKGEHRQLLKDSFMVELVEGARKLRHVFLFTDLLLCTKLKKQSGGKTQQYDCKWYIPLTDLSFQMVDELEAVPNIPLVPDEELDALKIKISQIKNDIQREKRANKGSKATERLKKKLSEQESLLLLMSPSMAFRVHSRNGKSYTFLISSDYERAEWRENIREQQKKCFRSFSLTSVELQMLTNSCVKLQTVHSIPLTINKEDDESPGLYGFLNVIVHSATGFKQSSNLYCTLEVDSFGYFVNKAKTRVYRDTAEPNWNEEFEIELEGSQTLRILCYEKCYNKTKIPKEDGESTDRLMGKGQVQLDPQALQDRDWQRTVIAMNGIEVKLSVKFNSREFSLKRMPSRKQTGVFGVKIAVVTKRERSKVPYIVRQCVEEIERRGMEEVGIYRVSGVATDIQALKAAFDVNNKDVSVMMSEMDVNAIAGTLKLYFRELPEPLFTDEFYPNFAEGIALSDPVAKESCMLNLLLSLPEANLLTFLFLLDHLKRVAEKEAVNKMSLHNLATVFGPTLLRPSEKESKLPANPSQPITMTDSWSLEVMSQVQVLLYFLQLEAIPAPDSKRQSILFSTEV
ADRB1: Beta-1 adrenergic receptor (ADRB1, Homo sapiens, UniProt P08588)
PARP2: Poly [ADP-ribose] polymerase 2 (PARP2, Homo sapiens, UniProt Q9UGN5)
Chain of UniProt Q9UGN5 (whole entry, looked up): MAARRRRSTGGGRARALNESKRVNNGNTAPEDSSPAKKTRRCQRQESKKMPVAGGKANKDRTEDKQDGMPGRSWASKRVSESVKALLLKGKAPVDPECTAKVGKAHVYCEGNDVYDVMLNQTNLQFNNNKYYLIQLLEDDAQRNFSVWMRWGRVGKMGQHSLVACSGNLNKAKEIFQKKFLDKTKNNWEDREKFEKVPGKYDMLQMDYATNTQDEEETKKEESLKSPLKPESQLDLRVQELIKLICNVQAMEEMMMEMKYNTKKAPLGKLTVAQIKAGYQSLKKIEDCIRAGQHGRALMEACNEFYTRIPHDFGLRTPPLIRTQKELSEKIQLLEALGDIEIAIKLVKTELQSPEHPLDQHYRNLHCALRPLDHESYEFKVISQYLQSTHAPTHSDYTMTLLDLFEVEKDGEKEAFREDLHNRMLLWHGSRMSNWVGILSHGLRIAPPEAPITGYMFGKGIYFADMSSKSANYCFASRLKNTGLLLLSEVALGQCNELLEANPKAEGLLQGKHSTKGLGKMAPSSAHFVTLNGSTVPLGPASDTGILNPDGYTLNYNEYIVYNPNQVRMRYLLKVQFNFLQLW
sn-1-specific diacylglycerol lipase ABHD11: sn-1-specific diacylglycerol lipase ABHD11 (Mus musculus, UniProt Q8K4F5)
Chain of UniProt Q8K4F5 (whole entry, looked up): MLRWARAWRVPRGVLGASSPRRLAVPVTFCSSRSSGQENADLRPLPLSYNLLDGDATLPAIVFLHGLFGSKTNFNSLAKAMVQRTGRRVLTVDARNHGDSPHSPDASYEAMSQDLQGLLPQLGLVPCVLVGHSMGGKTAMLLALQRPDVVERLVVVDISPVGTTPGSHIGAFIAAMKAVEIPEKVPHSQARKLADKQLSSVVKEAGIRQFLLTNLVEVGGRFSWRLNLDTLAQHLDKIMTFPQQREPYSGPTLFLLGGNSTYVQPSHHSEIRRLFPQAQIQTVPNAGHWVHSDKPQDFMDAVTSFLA
HDAC3: Histone deacetylase 3 (HDAC3, Homo sapiens, UniProt O15379)
Chain of UniProt O15379 (whole entry, looked up): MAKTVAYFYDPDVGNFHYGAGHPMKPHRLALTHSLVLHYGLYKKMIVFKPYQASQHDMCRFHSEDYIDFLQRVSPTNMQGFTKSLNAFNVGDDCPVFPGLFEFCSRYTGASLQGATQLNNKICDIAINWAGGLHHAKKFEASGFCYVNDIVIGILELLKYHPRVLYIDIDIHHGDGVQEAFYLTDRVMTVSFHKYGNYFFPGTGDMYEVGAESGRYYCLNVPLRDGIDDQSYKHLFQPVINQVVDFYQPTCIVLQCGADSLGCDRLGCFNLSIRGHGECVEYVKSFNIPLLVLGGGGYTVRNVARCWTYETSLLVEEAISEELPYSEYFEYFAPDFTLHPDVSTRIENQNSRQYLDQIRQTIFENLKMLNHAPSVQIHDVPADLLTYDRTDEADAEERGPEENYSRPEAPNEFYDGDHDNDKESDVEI
PARP1: Poly [ADP-ribose] polymerase 1 (PARP1, Homo sapiens, UniProt P09874)
Chain of UniProt P09874 (whole entry, looked up): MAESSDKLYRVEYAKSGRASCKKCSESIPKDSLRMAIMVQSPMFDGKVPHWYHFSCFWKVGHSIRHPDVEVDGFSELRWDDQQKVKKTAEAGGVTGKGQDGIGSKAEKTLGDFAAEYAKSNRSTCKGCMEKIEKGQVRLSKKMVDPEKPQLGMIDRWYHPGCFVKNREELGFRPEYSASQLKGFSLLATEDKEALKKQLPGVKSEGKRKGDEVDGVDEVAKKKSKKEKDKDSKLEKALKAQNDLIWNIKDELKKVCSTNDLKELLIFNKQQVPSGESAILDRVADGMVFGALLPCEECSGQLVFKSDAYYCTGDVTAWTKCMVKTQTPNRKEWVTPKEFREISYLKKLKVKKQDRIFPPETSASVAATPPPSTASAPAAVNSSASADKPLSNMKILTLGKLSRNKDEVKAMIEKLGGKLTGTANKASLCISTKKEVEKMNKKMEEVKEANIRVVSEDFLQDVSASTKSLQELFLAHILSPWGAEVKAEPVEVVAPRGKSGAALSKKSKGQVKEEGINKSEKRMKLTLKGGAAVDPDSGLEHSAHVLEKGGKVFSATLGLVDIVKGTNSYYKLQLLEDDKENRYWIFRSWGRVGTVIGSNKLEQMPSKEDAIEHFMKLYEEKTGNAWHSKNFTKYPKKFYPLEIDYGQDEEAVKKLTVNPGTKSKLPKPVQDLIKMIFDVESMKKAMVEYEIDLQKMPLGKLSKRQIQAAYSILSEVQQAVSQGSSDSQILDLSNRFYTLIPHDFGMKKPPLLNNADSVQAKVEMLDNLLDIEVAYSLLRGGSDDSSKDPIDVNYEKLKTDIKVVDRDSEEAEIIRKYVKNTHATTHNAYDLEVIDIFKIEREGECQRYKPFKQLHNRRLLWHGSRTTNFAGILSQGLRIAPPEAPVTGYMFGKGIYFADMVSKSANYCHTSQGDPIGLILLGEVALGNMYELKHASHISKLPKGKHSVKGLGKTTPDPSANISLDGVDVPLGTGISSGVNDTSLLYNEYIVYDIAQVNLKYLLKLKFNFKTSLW
DRD4: D(4) dopamine receptor (DRD4, Homo sapiens, UniProt P21917)
Chain of UniProt P21917 (whole entry, looked up): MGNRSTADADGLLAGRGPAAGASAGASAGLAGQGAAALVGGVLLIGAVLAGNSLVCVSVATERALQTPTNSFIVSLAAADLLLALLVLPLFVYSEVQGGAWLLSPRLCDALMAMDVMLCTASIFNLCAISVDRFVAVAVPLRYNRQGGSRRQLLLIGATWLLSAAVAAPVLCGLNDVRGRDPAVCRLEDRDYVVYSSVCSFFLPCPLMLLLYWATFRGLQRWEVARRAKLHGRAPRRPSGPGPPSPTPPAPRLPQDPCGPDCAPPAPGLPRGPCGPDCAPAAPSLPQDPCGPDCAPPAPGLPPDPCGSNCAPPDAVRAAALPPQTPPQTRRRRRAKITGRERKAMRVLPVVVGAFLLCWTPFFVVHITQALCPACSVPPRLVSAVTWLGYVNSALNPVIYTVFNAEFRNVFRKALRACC

For `CC(=O)[C@]12NC(C)(C)C[C@@]1(C)C(=O)C1=C2c2c(c3c4n2C(C)(C)CC2=C4[C@@]4(CC(C)(C)N[C@@](C)(C4)C2=O)CC3(C)C)C(=O)C(C)(C)N1` (racemic), the inhibition was 12 ± 0.07% (Sodium channel protein type 2 subunit alpha (SCN2A, Homo sapiens, UniProt Q99250); sodium current; HEK293T; 40 µM).
With `CN1CCN(C(=O)n2ccnn2)CC1` the inhibition was less than 50% (Platelet-activating factor acetylhydrolase 2, cytoplasmic; serine hydrolase activity, inhibitor, competitive gel-based ABPP; mouse T-cell proteome; 1 µM, 30 min, 37 °C).
`CC(C)NC(=O)[C@H](CCc1ccccc1)NC(=O)[C@H](CC(=O)NCC(C)(C)C)NC(=O)CCc1ccccc1` gave an inhibition of 8% (PLAT; enzyme activity, inhibitor; 100 µM).
`CCCC(=O)O[C@@]1(C)CN(Cc2ccccc2)[C@H]2C[C@@H]1CC(=O)[C@@H]2C` gave an inhibition of 0% (Kappa-type opioid receptor (OPRK1, Cavia porcellus, UniProt P41144); binding, radioligand binding; guinea pig brain; 1 µM, with: [3H]U-69,593).
`O=c1ccsn1Cc1ccccc1` has an inhibition of 1.17% (Breakpoint cluster region protein GAP domain; GAP activity; 10 µM, selectivity counter screen).
With `O=C(n1ccnn1)n1c2ccccc2c2ccccc21` the inhibition was less than 50% (Platelet-activating factor acetylhydrolase 2, cytoplasmic; serine hydrolase activity, inhibitor, competitive gel-based ABPP; mouse T-cell proteome; 1 µM, 30 min, 37 °C).
For `O=C1c2sc(-c3ccc(N4CCC(CO)CC4)nc3F)nc2CCN1c1cccnc1`, the inhibition was -9% (Cannabinoid receptor 1 (CNR1, Homo sapiens, UniProt P21554); ligand displacement, radioligand; 1 µM).
The inhibition of `C[Si]1(C[C@H](CN)CC(=O)O)CCCC1` is reported as -13% (ADRB1; cell-free assay, inhibitor; 70 µM).
With `Cc1cc(NC(=O)Nc2cc(C(F)(F)F)ccc2F)ccc1C(=O)Nc1ccc2[nH]ncc2c1` the inhibition was 20.6% (NT-3 growth factor receptor (NTRK3, Homo sapiens, UniProt Q16288); enzyme activity, inhibitor, FRET; 1 µM).
The inhibition of `COc1ccc(S(=O)(=O)N2CCc3ccccc3C2)cc1N1CCN(C(=O)c2ccc(F)cc2C(F)(F)F)CC1` is reported as -14.7% (Adenosine receptor A2b (ADORA2B, Homo sapiens, UniProt P29275); ligand displacement, radioligand; 1 µM).
`C=CC(=O)N1Cc2nc(-c3cc(-c4cc(Cl)cnc4Cl)c(F)cc3F)n(-c3ccncn3)c2C1` gave an inhibition of -12% (Phosphatidylinositol 4,5-bisphosphate 3-kinase catalytic subunit beta isoform, with p85 alpha (PIK3CB, Homo sapiens, UniProt P42338); kinome panel; 1 µM).
`COc1cc(-n2cc3cc(F)cc(C(N)=O)c3n2)cc(Cl)c1C1CC(O)(CCO)Cc2ccccc21` (stereo not drawn) has an inhibition of 1.56% (PARP2; enzyme activity, inhibitor; 10 µM).
`CCN(CC)C(=O)n1ccnn1` has an inhibition of less than 50% (sn-1-specific diacylglycerol lipase ABHD11; serine hydrolase activity, inhibitor, competitive gel-based ABPP; mouse T-cell proteome; 1 µM, 30 min, 37 °C).
With `Cc1c(COc2cc(OCc3cccc(C#N)c3)c(CN3CCCC[C@H]3C(=O)O)cc2Cl)cccc1-c1cccc(OCCCCCCC(=O)NO)c1` the inhibition was 96% (HDAC3; enzyme activity, inhibitor; 1 µM).
`COc1ccc2c(c1)CCc1sc(N)nc1-2` has an inhibition of 88.5% (Breakpoint cluster region protein GAP domain; GAP activity; 10 µM, selectivity counter screen).
`Cc1c(COc2cc(OCc3cccc(C#N)c3)c(CN3CCCC[C@@H]3C(=O)O)cc2Cl)cccc1-c1cccc(OCc2ccc(/C=C/C(=O)NO)cc2)c1` gave an inhibition of 59.2% (HDAC3; enzyme activity, inhibitor; 1 µM).
`CCn1cc(C(=O)O)c(=O)c2c(N)c(F)c(NC3CCCCC3)cc21` has an inhibition of -3.8% (Cyclin-dependent kinase 17, with p35 (CDK17, Homo sapiens, UniProt Q00537); kinase activity; 0.1 µM, with: ATP at Km).
With `C[C@@H]1CN(Cc2ccccc2)[C@H]2C[C@@H]1CC(=O)[C@@H]2C` the inhibition was 23% (Delta-type opioid receptor (Oprd1, Rattus norvegicus, UniProt P33533); ligand displacement, radioligand; 1 µM).
For `C=CC(=O)Nc1cccc(-c2cnc3[nH]cc(C(=O)NC(C)(C)C)c3n2)c1`, the inhibition was 4% (Phosphatidylinositol 4,5-bisphosphate 3-kinase catalytic subunit beta isoform (PIK3CB, Homo sapiens, UniProt P42338); enzyme activity, inhibitor; 0.1 µM).
`N#Cc1c(Nc2ccccc2C(F)(F)F)s[nH]c1=O` gave an inhibition of 25% (PARP2; enzyme activity, inhibitor; 10 µM).
`O=[N+]([O-])c1ccc(Cn2cc(Cn3cc(CO)nn3)nn2)cc1` has an inhibition of 93 ± 5% (1-phosphatidylinositol 4,5-bisphosphate phosphodiesterase delta-1, PH domain (Plcd1, Rattus norvegicus, UniProt P10688); PI(4,5)P2 binding to PH domain, SPR; 200 µM).
`Cc1cc(C(=O)NCCNC(=O)c2cccc(COc3ccccc3C(N)=O)c2)n[nH]1` gave an inhibition of 17% (PARP1; enzyme activity, inhibitor; 50 nM).
The inhibition of `Cc1c(COc2cc(OCc3cccc(C#N)c3)c(CNC(C)(CO)CO)cc2Cl)cccc1-c1cccc(OCCCCCCC(=O)NO)c1` is reported as 95.7% (HDAC3; enzyme activity, inhibitor; 1 µM).
`O=C(CC1CC2CCC1C2)NCCNC(=O)Cn1c(=O)[nH]c(=O)c2ccccc21` (stereo not drawn) gave an inhibition of 7% (PARP1; enzyme activity, inhibitor; 50 nM).
`CC(C)(C)c1ccccc1OS(=O)(=O)Oc1cccc(C(=O)NO)c1` gave an inhibition of 37% (Histone deacetylase 3, with NCoR2 DAD (HDAC3, Homo sapiens, UniProt O15379); enzyme activity, fluorogenic; 10 µM).
With `O=C(N1CCCC1)n1ccnn1` the inhibition was greater than 95% (sn-1-specific diacylglycerol lipase ABHD11; serine hydrolase activity, inhibitor, competitive gel-based ABPP; mouse T-cell proteome; 1 µM, 30 min, 37 °C).
With `Cc1c(COc2cc(OCc3cccc(C#N)c3)c(CNC(CO)CO)cc2Cl)cccc1-c1cccc(OCc2ccc(/C=C/C(=O)NO)cc2)c1` the inhibition was 37.4% (HDAC3; enzyme activity, inhibitor; 1 µM).
With `CCCCCCCCCCCCCCCC(=O)N[C@@H](CCCCN)C(=O)N[C@@H](CCCCN)C(=O)N[C@@H](CO)C(=O)N[C@@H](CCCNC(=N)N)C(=O)N[C@@H](C)C(=O)N[C@@H](CC(C)C)C(=O)N[C@@H](Cc1ccccc1)C(N)=O` the inhibition was 17% (Proteinase-activated receptor 1 (F2R, Homo sapiens, UniProt P25116); platelet aggregation, ex vivo LTA; human; 0.5 mg/kg, 2 h, with: SFLLRN 20 µM; reference: baseline).
The inhibition of `O=C(Nc1ccc(C(F)F)cc1)[C@H](CC1CCCCC1)Nc1nn2c(=O)ccnc2s1` is reported as 5% (Tyrosine-protein phosphatase non-receptor type 11 (PTPN11, Homo sapiens, UniProt Q06124); enzyme activity, inhibitor; 10 µM).
For `CCCCCCN(O)C(=O)CCCCC[C@@H]1NC(=O)[C@H]([C@@H](C)CC)NC(=O)[C@H](Cc2ccccc2C(F)(F)F)NC(=O)CCSCc2cccc(n2)CSCCCNC1=O`, the inhibition was 35% (HDAC3; enzyme activity, inhibitor, fluorogenic; 30 µM).
The inhibition of `Cc1cccc(O[C@H]2CCC[C@@H](C(C)CNCc3ccncc3)C2)c1` (relative stereo) is reported as -13% (Tyrosine-protein kinase Lyn, isoform B (LYN, Homo sapiens, UniProt P07948); kinome profiling; 10 µM).
`CN(C)C/C=C/C(=O)Nc1ccc2nc(NCCCCCN(C)C)nc(NCCCCCCN(C)C)c2c1` has an inhibition of 2% (DNA (cytosine-5)-methyltransferase 1 (DNMT1, Homo sapiens, UniProt P26358); enzyme activity, inhibitor, radiometric; 50 µM).
With `CCCCCCC#Cc1cncc(-c2nnc(SC[C@H]3O[C@@H](n4ccc(=O)[nH]c4=O)[C@@H]4OC(C)(C)O[C@@H]43)n2C)c1` the inhibition was roughly 28% (mraY (Staphylococcus aureus, UniProt Q2FZ93); cell-free assay, inhibitor; 250 µM).
With `C[Si](C)(C)C[C@H](CN)CC(=O)O` the inhibition was -2% (L-type calcium channel, rat; binding, radioligand binding; 250 µM, with: [3H]diltiazem).
For `O=C(CN1CCO[C@@H](COc2cccc(Cl)c2)C1)N1CCc2ccccc21`, the inhibition was 26.7% (5-hydroxytryptamine receptor 6 (HTR6, Homo sapiens, UniProt P50406); radioligand binding; concentration not given, with: [3H]LSD).
For `O=C1c2sc(-c3ccc(N4CCC(F)C4)nc3F)nc2CCN1c1cccnc1` (stereo not drawn), the inhibition was -4% (Alpha-1A adrenergic receptor (ADRA1A, Homo sapiens, UniProt P35348); ligand displacement, radioligand; 1 µM).
`CN(C)C(=O)n1ccnn1` has an inhibition of less than 50% (Neutral cholesterol ester hydrolase 1 (Mus musculus, UniProt Q8BLF1); probe labeling, inhibitor, gel-based competitive ABPP; mouse T-cell proteome; 1 µM, 30 min, 37 °C).
The inhibition of `O=C(CCCc1ccc2c(c1)OCCO2)NCCNC(=O)Cn1c(=O)[nH]c(=O)c2ccccc21` is reported as 0% (PARP2; enzyme activity, inhibitor; 5 nM).
For `Brc1ccccc1-c1nnc(CSc2nnnn2-c2ccccc2)o1`, the inhibition was 7% (ADRB1; ligand displacement, radioligand; 10 µM).
The inhibition of `O=C(N(c1ccccc1)c1ccccc1)n1ccnn1` is reported as greater than 95% (sn-1-specific diacylglycerol lipase ABHD11; serine hydrolase activity, inhibitor, competitive gel-based ABPP; mouse T-cell proteome; 1 µM, 30 min, 37 °C).
`N#Cc1ccnc(N2C(=O)CC[C@H]2C(=O)N(c2cncc(F)c2)[C@H](C(=O)NC2CC(F)(F)C2)c2ccccc2Cl)c1`: inhibition “no inhibition” (GLUD1 (Homo sapiens, UniProt P00367); enzyme activity; 100 µM).
For `Cc1ccc(CNC(=O)C(CCc2ccccc2)NC(=O)C(NC(=O)Cc2cccc(Oc3ccccc3)c2)C(C)O)cc1` (stereo not drawn), the inhibition was 19% (PLAT; enzyme activity, inhibitor; 100 µM).
For `Fc1cccc(OCC2CN(Cc3ncc4ccccn34)CCC2(F)F)c1` (stereo not drawn), the inhibition was 42% (DRD4; ligand displacement, radioligand; 10 µM).
For `Cc1cc(N2CCOCC2)nc2cc(Cl)ccc12`, the inhibition was -19% (Breakpoint cluster region protein GAP domain; GAP activity; 10 µM, selectivity counter screen).
The inhibition of `COc1ccc(CN2CC(COc3cccc(Cl)n3)CC(F)(F)C2)cc1F` (stereo not drawn) is reported as 33% (DRD4; ligand displacement, radioligand; 10 µM).
With `O=C(N1CCOCC1)n1ccnn1` the inhibition was greater than 95% (sn-1-specific diacylglycerol lipase ABHD11; serine hydrolase activity, inhibitor, competitive gel-based ABPP; mouse T-cell proteome; 1 µM, 30 min, 37 °C).
`Cc1c(COc2cc(OCc3cccc(C#N)c3)c(CN3CCCC[C@H]3C(=O)O)cc2Cl)cccc1-c1cccc(OCCCCCC(=O)NO)c1` has an inhibition of 93.2% (HDAC3; enzyme activity, inhibitor; 1 µM).
`Cn1sc(Nc2c(Cl)ccc3ncccc23)c(C#N)c1=O` gave an inhibition of 39% (NMNAT1 (Homo sapiens, UniProt Q9HAN9); enzyme activity, inhibitor; 10 µM).
The inhibition of `Cc1ccc(CNC(=O)[C@H](CCc2ccccc2)NC(=O)[C@H](CC(=O)NCC(C)(C)C)NC(=O)CCc2cccc(F)c2)cc1` is reported as 13% (PLAT; enzyme activity, inhibitor; 100 µM).
`COc1ccc(NC(=O)Nc2cccc(C(=O)N3CCC(C)CC3)c2)cc1`: inhibition “no inhibition” (Beta-lactam-inducible penicillin-binding protein (pbp, Staphylococcus aureus, UniProt P07944); Bocillin-FL labelling, fluorescence polarization; 50 µM).
`NC(=O)[C@@H](O)C[C@H]1CCc2sc3ncnc(O[C@H]4CC[C@H](N5CCOCC5)CC4)c3c21` has an inhibition of 28% (Cyclin-dependent kinase 1, with cyclin E (CDK1, Homo sapiens, UniProt P06493); enzyme activity, inhibitor; 10 µM).
